Assay results pooled from the literature.
Protocols differ between the studies behind these lines.

Structure (SMILES)	test	test system	setting	half-life [h]
C[C@@H]1CCC[C@H](n2cnc(-c3cc(Cl)ccc3-n3cc(Cl)nn3)cc2=O)c2cc(ccn2)-c2c(cnn2C(F)F)NC1=O		human, plasma	oral, 200 mg, single dose, fed, healthy volunteers	9
Cc1cc(C(=O)NC(C)(C)COc2cccc3c2C(N)=NS(=O)(=O)N3)cc(C)n1		female Sprague-Dawley rat, plasma	oral, 100 mg/kg, single dose	1.25
CNCc1ccc(-c2[nH]c3cc(F)cc4c3c2CCNC4=O)cc1		human, plasma	oral, 300 mg, fasted, mean	23.5
Cn1nnc2c(C(N)=O)ncn2c1=O		male athymic rat, intracranial U87 glioma, tumour extracellular fluid	oral, 50 mg/kg, uncorrected microdialysis, added: before cediranib	2.2
Cc1nc2cccc(OCC(C)(C)C(=O)NC(C)C)c2c(N)c1C(=O)O		male Sprague-Dawley rat, plasma	oral gavage, 30 mg/kg, day 1	0.88
CCCC[C@H](NC(C)=O)C(=O)N[C@H]1CCC(=O)NC[C@@H](C(=O)N[C@@H](Cc2c[nH]c3ccccc23)C(N)=O)NC(=O)[C@H](CCCNC(=N)N)NC(=O)[C@@H](Cc2ccccc2)NC(=O)[C@H](Cc2c[nH]cn2)NC1=O		female rat, plasma	subcutaneous, 1 mg/kg/day, multiple doses, once daily	0.624
COc1cccc(-c2ccc(NC(=O)C3=C(C(=O)O)CCC3)c(F)c2)c1		male human, plasma	oral, 40 mg, single dose, fasted, healthy volunteers	41.4
CCN1CCN(c2ccc(Nc3cc(N(C)C(=O)Nc4c(Cl)c(OC)cc(OC)c4Cl)ncn3)cc2)CC1	LC-MS/MS	juvenile male Crl:WI(Han) rats, plasma	oral gavage, 0.1 mg/kg/day, postnatal day 17	5.87
Oc1ccc(C(c2ccc(O)cc2)(C(F)(F)F)C(F)(F)F)cc1		male rat, plasma	intravenous, 34 mg/kg, single dose	8.01

Some of these lines once more:
Structure (SMILES)	test	test system	setting	half-life [h]
Cc1nc2cccc(OCC(C)(C)C(=O)NC(C)C)c2c(N)c1C(=O)O		male Sprague-Dawley rat, plasma	oral gavage, 30 mg/kg, day 1	0.88
